Results from different studies.
Compare with care: the assays were run in different laboratories. Numbers after ± are the reported error.

CCCC[C@H](NC(C)=O)C(=O)N[C@H]1CC(=O)NCCCC[C@@H](C(=O)N[C@@H](C(=O)N2CCC[C@@H]2C(N)=O)C(C)C)NC(=O)[C@H](Cc2c[nH]c3ccccc23)NC(=O)[C@H](CCCN=C(N)N)NC(=O)[C@@H](Cc2ccc3ccccc3c2)NC(=O)[C@@H]2CCCN2C1=O gave a Tmax of 1.2 ± 0.2 h (Beagle dog, both sexes, plasma; subcutaneous, once daily, 0.75 mg/kg, day 5).
With CC(C)C[C@@H](NC(=O)[C@H](NC(=O)[C@H]1CCCN1)[C@H](C)O)C(=O)N[C@H](Cc1c[nH]cn1)C(=O)N[C@@H](C(=O)N[C@H](Cc1c[nH]cn1)C(=O)N[C@H](CC(N)=O)C(=O)N[C@H](CCCNC(=N)N)C(=O)N[C@H](CCCNC(=N)N)C(=O)N[C@H](CCCNC(=N)N)C(=O)N[C@H](CCCNC(=N)N)C(=O)N[C@H](CCCNC(=N)N)C(N)=O)[C@H](C)O the tmax was 8.7 ± 7.8 h (Beagle dog, CSF; oral, 50 mg/kg).
For CCCC[C@H](NC(C)=O)C(=O)N[C@H]1CC(=O)NCCCC[C@@H](C(=O)N[C@@H](C(=O)N2CCC[C@@H]2C(N)=O)C(C)C)NC(=O)[C@H](Cc2c[nH]c3ccccc23)NC(=O)[C@H](CCCN=C(N)N)NC(=O)[C@@H](Cc2ccc3ccccc3c2)NC(=O)[C@@H]2CCCN2C1=O, the Tmax was 1 h (dog, cachectic, plasma; subcutaneous, 0.75 mg/kg).
O=C(CCC(C(=O)[O-])N1CCN(C(CCC(=O)NCC(O)CO)C(=O)[O-])Cc2cccc(n2)CN(C(CCC(=O)NCC(O)CO)C(=O)[O-])CC1)NCC(O)CO.[153Gd+3] (centres unmarked) has a Tmax of 0.0833 h (refers to: total radioactivity; Beagle dog, plasma; intravenous, 0.2 mmol Gd/kg).
With CC1(C)CCC(CN2CCN(c3ccc(C(=O)NS(=O)(=O)c4ccc(NCC5COCCO5)c([N+](=O)[O-])c4)c(N4CCCOc5nc6[nH]ccc6cc54)c3)CC2)=C(c2ccc(Cl)cc2)C1 (centres unmarked) the Tmax was 10 h (male Beagle dogs, plasma; oral, 25 mg/kg).
With COC(=O)c1ccc2c(c1)NC(=O)/C2=C(\Nc1ccc2c(c1)CCN2C(=O)CN1CCOCC1)c1ccccc1 the Tmax was 2 h (beagle dog, plasma; oral, 50 mg/kg).
Cc1[nH]c(/C=C2\C(=O)Nc3ccc(F)cc32)c(C)c1NC(=O)CCN1CCN(C)CC1 has a Tmax of 9.08 ± 11.6 h (Beagle dog, both sexes, plasma; oral, 3 mg/kg).
For Cc1ccc(OCC(=O)N(Cc2cccs2)c2ccn[nH]2)cc1, the Tmax was 1.5 h (beagle dog, male, plasma; oral gavage, 10 mg/kg).
